Published values gathered from unrelated publications.
Every numbered part comes from another study and shows a few of its results, in no order.

Sample 1 — technique: RNA Bind-n-Seq; form: RNA; matrix: in vitro; tested at: 1 µM; setting: whole 134-nt RNA, ends assumed; together with: 150 mM KCl; relative to: input library; reading: higher = stronger binding
Target: Ras GTPase-activating protein-binding protein 1, RRM domain (G3BP1, Homo sapiens, UniProt Q13283)
Chain of UniProt Q13283 (whole entry, looked up): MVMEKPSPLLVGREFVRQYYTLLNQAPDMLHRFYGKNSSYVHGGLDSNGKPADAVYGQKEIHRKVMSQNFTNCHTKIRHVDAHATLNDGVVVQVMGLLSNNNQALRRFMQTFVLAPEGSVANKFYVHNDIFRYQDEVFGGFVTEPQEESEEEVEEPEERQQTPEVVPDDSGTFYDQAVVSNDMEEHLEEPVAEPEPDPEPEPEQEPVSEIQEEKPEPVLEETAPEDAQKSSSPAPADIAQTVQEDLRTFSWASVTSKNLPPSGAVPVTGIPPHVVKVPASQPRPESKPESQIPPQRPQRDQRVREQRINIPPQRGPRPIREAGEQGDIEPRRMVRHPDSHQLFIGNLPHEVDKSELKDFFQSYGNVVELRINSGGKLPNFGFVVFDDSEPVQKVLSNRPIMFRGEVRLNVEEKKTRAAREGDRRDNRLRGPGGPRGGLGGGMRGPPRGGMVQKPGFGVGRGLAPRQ
Oligonucleotide | log2 enrichment
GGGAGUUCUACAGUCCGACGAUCGCAGGAAGUAAAAACAAAUGGAAAUGCUUCGGAUAGUGGCAGGGGUGGGAAAUGCUAAGGAAAGGGUGGGAUGGGAGUGGGUAAAGAGUUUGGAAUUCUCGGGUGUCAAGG | 1.01
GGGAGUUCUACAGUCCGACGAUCCUGUGCUACACAUCGUAUGUACCGAAUCGGGAAAAAAAGGAAAAAAAGGGAAAAAAAGGGGAAAGUAUUAUGUUACGCCGUUCGGAUCUGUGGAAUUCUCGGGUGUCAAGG | 0.0998
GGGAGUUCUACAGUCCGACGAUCGUCCUGUGCUACACAUCGUAUGUACCGAAUCGGGGUUUUUGGUUUUUGGUUUUUGGGGAAAGUAUUAUGUUACGCCGUUCGGAUCUGCACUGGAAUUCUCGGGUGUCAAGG | -0.231
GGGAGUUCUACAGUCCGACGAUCGCAGGAAGUAAAAACAAAUGGAAAUGCUUCGGAUAGUGGCAGGGGUGGGGGUUGAAAAGGAAAGGGUGGGAUGGGAGUGGGUAAAGAGUUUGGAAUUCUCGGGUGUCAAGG | 1.12
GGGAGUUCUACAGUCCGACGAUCGCAGGAAGUAAAAACAAAUGGAAAUGCUUCGGAUAGUGGCAGGGGUGGGGGUUGCUAAGGAGAGGGUGGGAUGGGAGUGGGUAAAGAGUUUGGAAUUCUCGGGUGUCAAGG | 0.899
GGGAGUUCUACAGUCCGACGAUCUAGGAGGUGGAUUUUGUUUAUUUUUUUAGCUCAUUUCCAGGGGUGGGAAUUUUUUUUUAAUAUGUGUCAUGAAUAAAGUUGUUUUUGAAAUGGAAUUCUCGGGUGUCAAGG | 2.02

Sample 2 — technique: protein-binding microarray; form: double-stranded DNA, one strand shown; matrix: in vitro; tested at: 250 nM; setting: 60-bp whole probe; together with: salmon DNA 0.4 mg/ml; relative to: random background probes; reading: higher = stronger binding; shared flanks, not repeated: GCCTAGCAC … GTCTTGATTCGCTTGACGCTGCTG
Target: Interferon regulatory factor 5, full length, phosphomimetic (IRF5, Homo sapiens, UniProt Q13568-2, residues 1-514, K96S/S451D/S453D/S456D/S462D)
Oligonucleotide | log fluorescence [z-score]
TTAGGTTTAGACACTGGGTTAGTGCTA | 0.0516
TTAGGGATCGACTATCGGTTAGTGCTA | 6.79
GACGATTTCAGTCTTGAGACGTGCTAG | 1.28
GACGATTTCAGTTTCAAGACGTGCTAG | 2.64
TCAACACTAATTTTCATACTGTGCTAG | 1.32
GGGATTTTTAGTTAGAAAAAGTGCTAG | 0.113
GACGGTTCCCTTTACCTGACGTGCTAG | 0.0209

Sample 3 — technique: RNA Bind-n-Seq; form: RNA; matrix: in vitro; tested at: 365 nM; relative to: no-protein control; reading: higher = stronger binding
Target: RNA binding protein fox-1 homolog 2, RRM domain, GST-SBP tag (RBFOX2, Homo sapiens, UniProt O43251-10, residues 100-194)
Setting: natural RNA segment, single round, ends assumed
Oligonucleotide | RBNS enrichment (R)
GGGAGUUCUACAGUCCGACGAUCAGAAACAUUAAUUAAGUGUAUGGCUGCCUUUGAAAUACUUGAUGUGUUGUUGUUGCCUUACAGAGGACUACAAGUAUAAAGCAAAUAGCUGUUUUAAAAUUAUGUAAAUAUGGAAUUCUCGGGUGCCAA | 0.621
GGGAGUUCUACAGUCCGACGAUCCUAAGUACUUUAGUAGAAAACAACCUGUCAAUUUCUGAGGAAAAUAACAUUUUAGAAGCAAAGAACAAGCCUUUCUAAAUCUUCAGCUGUCAGCGUUUGGCAUUUAAUCUUGGAAUUCUCGGGUGCCAA | 0.546
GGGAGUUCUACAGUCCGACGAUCGGCUCUUCCUGCACUGCCCUCACCCUCAGCCGUCCCAAGGAGUGCCCAGCACUACUCAGCAUGUAGUCCAGGACCUGCGGCAUCAGCAUCCCCUGGGAGCUUCUUAGAAAUGGAAUUCUCGGGUGCCAA | 8.44
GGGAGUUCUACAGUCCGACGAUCCCAGAAUCCUUGACUCCCUGCCCCUUGUAUAAAUUGGACAGCUUAGGACUUUUAAACUUUAGAUCAAAAGAUAUGGUCCUUUUUAACUUUAUUUUUAAGGAGCAGACUUUUGGAAUUCUCGGGUGCCAA | 0.422
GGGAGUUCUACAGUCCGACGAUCCUGUUAGUGUGAUCUGUGGAGAAUGUACAGAACUUAACUACAUCAAUAAACACUUUAACGUCCCCUGGCACCUUGUGUUCCUGACCAUGGCUUCGAUCUAUGCUGAUGGAUGGAAUUCUCGGGUGCCAA | 1.24
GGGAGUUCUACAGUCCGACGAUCUCCCUACAGCCCAUAGUAGUGUCAGCGUGGACUGUAGGGCCCCAUUGGGUAUUAGGAUUUAGGCUCCCCCACCCCCACCAACUUUAAAGUGGUUGAGUAAUUUUUUUGUGUGGAAUUCUCGGGUGCCAA | 0.94
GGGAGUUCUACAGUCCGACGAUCCCCACCAACUCGGAGCCCGCCUGGCUCCAGUGCCCAGCAGCAGCAUGUCAGCUGAGCCUCCUGCCCUCCCCCAGGAACAUGCACGCUCACUCUGCUUCCUUGUGGGUGGCUGGAAUUCUCGGGUGCCAA | 17.3
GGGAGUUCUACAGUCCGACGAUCAACCUAUUGCCUAUGAGAAACAUGUAAGAUAAUGUAUUUACAGCCAUUGUUACAAGUUUAUAAUGUAUUUUUCUAUCUUGUUUUAUAUGUAUGUUAUAUAACAUUCAAAAUGGAAUUCUCGGGUGCCAA | 0.479

Single results of other studies
Substance | target | test | test system | setting | how to read | endpoint | result
PhoQ, residues 284 288 289 292 302 303 GLASVI | PhoP, residues 12 14 15 18 19 NHFRA (Escherichia coli, UniProt P23836) | Sort-seq, item: YFP reporter | E. coli | PhoQ-PhoP variant library, together with: 10 µM Mg2+ | relative to: high Mg2+ state, higher = stronger signaling | fold induction | 1.26

Some of these lines once more (sample 1):
Oligonucleotide | log2 enrichment
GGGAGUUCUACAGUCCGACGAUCGCAGGAAGUAAAAACAAAUGGAAAUGCUUCGGAUAGUGGCAGGGGUGGGAAAUGCUAAGGAAAGGGUGGGAUGGGAGUGGGUAAAGAGUUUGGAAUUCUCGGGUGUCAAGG | 1.01
